Measurements collected from several papers.
Several values in a cell are separate wells, animals, samples, runs or records.
Target: Activin receptor type-1-like (ACVRL1, Homo sapiens, UniProt P37023)
UniProt P37023, sequence (whole entry, unmodified, looked up): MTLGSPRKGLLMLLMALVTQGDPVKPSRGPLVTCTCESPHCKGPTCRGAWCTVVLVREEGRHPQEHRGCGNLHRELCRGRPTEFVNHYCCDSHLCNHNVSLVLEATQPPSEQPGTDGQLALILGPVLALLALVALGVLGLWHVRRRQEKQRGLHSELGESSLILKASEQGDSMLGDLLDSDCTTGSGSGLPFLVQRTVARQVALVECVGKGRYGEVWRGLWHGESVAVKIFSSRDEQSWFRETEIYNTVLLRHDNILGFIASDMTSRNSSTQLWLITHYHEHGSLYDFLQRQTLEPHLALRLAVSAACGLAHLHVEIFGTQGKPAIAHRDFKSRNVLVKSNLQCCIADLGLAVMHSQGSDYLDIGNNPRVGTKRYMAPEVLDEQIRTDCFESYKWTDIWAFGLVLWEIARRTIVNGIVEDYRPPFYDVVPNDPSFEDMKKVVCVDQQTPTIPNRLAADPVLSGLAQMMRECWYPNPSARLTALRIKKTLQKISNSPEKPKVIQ

Compound | read-out | mode | technique | tested at | baseline | quantity | value
CNC(=O)C1CCN(c2cc(C)c(F)cc2NC(=O)c2ccc(-c3cc(O)ccc3C)c(C)c2)CC1 | binding | – | competition with immobilised ligand | 1 µM | – | remaining binding | 99%
Nc1ncc(-c2cc(-c3cnn(CC(F)(F)F)c3)ncc2F)nc1C(=O)NC1CNCC(F)C1 (centres unmarked) | enzyme activity | – | – | 1 µM | DMSO control | remaining activity | 109%
CN1CCN(Cc2ccc(-c3ccc(CO[C@H]4CCC[C@@H]4NC(=O)c4cc(-c5cnn(C)c5)cnc4N)cc3)cc2)CC1 | enzyme activity | inhibitor | – | 0.1 µM | – | inhibition | 7%
CNC1C[S+]2CC[S+]3CC[S+](C1)[Ru-4]321([N]=C=S)[n]2c3ccc(OC)cc3c3c4c(c5cc(F)c[n+]1c5c32)C(=O)NC4=O (centres unmarked) | – | – | KinomeScan | 0.1 µM | untreated | remaining binding | 99%
COCC12C(=O)NC3C4(C(OC)CC1O)C1CC5(O)C(OC)C(O)C(OC(C)=O)(C1C5OC(=O)c1ccccc1)C3(O)C(OC)C24 (centres unmarked) | kinase activity | inhibitor | ProQinase kinase profiling | 25 µM | control | remaining activity | 97% and 101%
NC(=O)[C@@H](O)C[C@H]1CCc2sc3ncnc(O[C@H]4CC[C@H](N5CCOCC5)CC4)c3c21 | enzyme activity | inhibitor | – | 10 µM | – | inhibition | 4%
CC(C)=CC1OC(C)(C)C2C=C3C(=O)C(Cl)=CC(O)C3C3C(O)C4OC4C(=O)C132 (centres unmarked) | cell-free assay | – | competition with immobilised ligand | 10 µM | – | remaining binding | 100%
Cc1cnc2nc1Nc1cccc(c1)COC/C=C/COCc1cc(ccc1OCCN1CCOCC1)N2 | binding | – | – | 0.1 µM | – | remaining binding | 100%
C=CC(=O)N1CCCC(n2c(=O)c3ncccc3n(Cc3ccc(Oc4ccccc4)cc3)c2=O)C1 (centres unmarked) | cell-free assay | – | competition with immobilised ligand | 1 µM | – | remaining binding | 100%
COc1cc(Nc2nc(C)cc(-c3cnn4nc(OC)ccc34)n2)cc(C(F)(F)F)c1 | – | inhibitor | – | 1 µM | control | remaining activity | 89%
O=C(Cc1ccc(OCc2ccccc2)cc1)NC1(C(=O)O)CCN(C(=O)c2ccc(-c3cccc(Cl)c3)cc2)CC1 | enzyme activity | inhibitor | – | 10 µM | – | activity vs control | 101%

A few entries again:
Compound | read-out | mode | technique | tested at | baseline | quantity | value
CNC1C[S+]2CC[S+]3CC[S+](C1)[Ru-4]321([N]=C=S)[n]2c3ccc(OC)cc3c3c4c(c5cc(F)c[n+]1c5c32)C(=O)NC4=O (centres unmarked) | – | – | KinomeScan | 0.1 µM | untreated | remaining binding | 99%
